# Assay results of several laboratories.
# Target: Carbonic anhydrase 12 (CA12, Homo sapiens, UniProt O43570)
# Chain of UniProt O43570 (whole entry, looked up): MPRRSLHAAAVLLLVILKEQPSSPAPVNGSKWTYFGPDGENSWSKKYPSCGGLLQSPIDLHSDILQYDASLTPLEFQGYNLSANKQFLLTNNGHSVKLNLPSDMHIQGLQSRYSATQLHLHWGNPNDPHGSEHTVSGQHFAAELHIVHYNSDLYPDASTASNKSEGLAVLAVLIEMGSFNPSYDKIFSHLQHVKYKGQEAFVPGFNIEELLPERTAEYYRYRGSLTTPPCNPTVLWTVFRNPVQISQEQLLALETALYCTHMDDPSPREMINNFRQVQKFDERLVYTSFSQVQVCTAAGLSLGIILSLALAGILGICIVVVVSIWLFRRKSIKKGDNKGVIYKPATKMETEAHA
Compound,test,how to read,selectivity ratio
NS(=O)(=O)c1c(F)c(F)cc(F)c1N[C@H]1CCCc2ccccc21,thermal shift,baseline: Kd CA XII over Kd CA II,4.5
NS(=O)(=O)c1ccc(Nc2nc3nccc(-c4ccc5ccccc5c4)n3n2)cc1,stopped-flow CO2 hydrase,baseline: Ki hCA II over Ki CA12,5.2
NS(=O)(=O)c1ccc(CCn2c(SCC(=O)N/N=C/c3ccccc3O)nc3ccccc3c2=O)cc1,"inhibitor, stopped-flow",baseline: Ki hCA II over Ki hCA XII,2.7
COc1cc(-c2ccnc3nc(Nc4ccc(S(N)(=O)=O)cc4)nn23)cc(OC)c1OC,stopped-flow CO2 hydrase,baseline: Ki hCA IV over Ki CA12,50.1
NS(=O)(=O)c1c(F)c(NCCc2ccc(O)cc2)c(SCCO)c(NC2CCCCCCCCCCC2)c1F,thermal shift,baseline: Kd CA II over Kd CA XII,> 400
C/C(=N\NC(=O)CSc1nc2ccccc2c(=O)n1CCc1ccc(S(N)(=O)=O)cc1)c1ccccc1,"inhibitor, stopped-flow",baseline: Ki hCA II over Ki hCA XII,5.32
NS(=O)(=O)c1c(F)c(F)c(S(=O)(=O)CCc2ccccc2)c(NCc2ccccc2)c1F,thermal shift,baseline: Kd CA XII over Kd CA II,6
COc1cccc(/C=N/NC(=O)CSc2nc3ccccc3c(=O)n2CCc2ccc(S(N)(=O)=O)cc2)c1,"inhibitor, stopped-flow",baseline: Ki hCA I over Ki hCA XII,12.8
COCCOc1cc2ncnc(Nc3cccc(-c4cn(CCc5ccc(S(N)(=O)=O)cc5)nn4)c3)c2cc1OCCOC,stopped-flow CO2 hydration,baseline: Ki hCA I over Ki hCA XII,2.92

# Repeated from above:
Compound,test,how to read,selectivity ratio
NS(=O)(=O)c1ccc(CCn2c(SCC(=O)N/N=C/c3ccccc3O)nc3ccccc3c2=O)cc1,"inhibitor, stopped-flow",baseline: Ki hCA II over Ki hCA XII,2.7
